Assay results from different studies.
Every numbered part comes from another study and shows a few of its results, in no order. Changes are numbered by the printed parent chain.

Series 1
Cell line: yeast with cyclin E2-Cln2 chimera
Observed: cell growth
Action: binder
Technique: competitive growth deep sequencing
Molecule type: peptide
Tested at: concentration not given
Notes: peptide tiling library
Reading: direction not given
Sequence	growth enrichment score
NESHLDKEHDAVEVAD	-0.0362
YLYLLLTQSLWCRV	0.653
ELGMEHCEKFEISETS	0.597
LAKRALKYTD	-1.39
KVRRNLFNQELLSP	1.42
NRLLKLFTRCLTPLVP	0.169
VSRNLRSSLKSSLHTL	-0.108
NLEPNAEFDKRTEFIT	0.103
RTEALEQGGLPKKLIF	0.134
GPVKLEFDVSDGAT	-0.0241
PPTFLSTGEIHAFLSS	0.0701
SPREGHMMDALYAQVK	1.86
RRRRLLFWDKETQI	-0.244
SFLIEYEFLIPPSLKP	-0.152
ATNSSHTDAHEILVSD	0.379

Series 2
Target: ABI1, truncated, D143A, DHFR fusion (Arabidopsis thaliana)
Technique: DHFR PCA, deep sequencing
Sample: yeast
Notes: methotrexate growth selection, single substitutions
With: (+)-ABA 1.4 µM
Relative to: wild-type fitted maximum
Reading: higher = stronger binding
Starting sequence: PYL1, truncated, DHFR fusion (Arabidopsis thaliana); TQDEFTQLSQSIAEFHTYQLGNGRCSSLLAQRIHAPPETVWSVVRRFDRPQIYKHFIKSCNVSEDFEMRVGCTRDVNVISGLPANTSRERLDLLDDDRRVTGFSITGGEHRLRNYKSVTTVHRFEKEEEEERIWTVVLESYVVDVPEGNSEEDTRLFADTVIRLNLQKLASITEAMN; partner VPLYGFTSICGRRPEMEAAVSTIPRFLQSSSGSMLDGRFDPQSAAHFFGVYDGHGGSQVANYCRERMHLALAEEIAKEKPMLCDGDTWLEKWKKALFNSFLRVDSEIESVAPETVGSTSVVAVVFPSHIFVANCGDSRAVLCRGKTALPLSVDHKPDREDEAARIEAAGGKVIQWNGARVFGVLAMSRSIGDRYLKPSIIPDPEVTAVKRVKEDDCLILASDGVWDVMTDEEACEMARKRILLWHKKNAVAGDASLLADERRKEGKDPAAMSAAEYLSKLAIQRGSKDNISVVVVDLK
Change	relative binding score [%]
S87A	9.21
V118G	-3.68
V78Y	80.1
G107Y	-18.3
R111D	-18.3
V118D	5.05
D95N	26.8
P36N	43.2
G21Q	56.2
I12G	-4.21
Q31V	13.5
W41P	-9.78
V76I	75.6
K58L	6.31
N149V	39
R123C	40.1
S80T	45
A84V	18.7
R74N	-4.38
E125M	58
L112A	-5.49
V143Q	-2.8
Y115A	-6.77
N165Y	-9.17
V161M	62.8

Series 3
Target: Histone acetyltransferase KAT6A, both winged helices, GST fusion (KAT6A, Homo sapiens, UniProt Q92794, residues 1-181)
Technique: protein binding microarray
Molecule type: double-stranded DNA, one strand shown
Sample: in vitro
Tested at: not given
Notes: 8-mer, flanks averaged, mean of 2 arrays, mostly near background
Relative to: not given
Reading: higher = stronger binding
Residues (chain): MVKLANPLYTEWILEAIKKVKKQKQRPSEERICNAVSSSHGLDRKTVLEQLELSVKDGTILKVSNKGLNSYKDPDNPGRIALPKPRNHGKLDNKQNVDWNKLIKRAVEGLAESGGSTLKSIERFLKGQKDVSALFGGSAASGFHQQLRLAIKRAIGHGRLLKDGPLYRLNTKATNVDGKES
Oligonucleotide	E-score
CGCCTAGA	0.185
ATAGCACG	0.107
GTCGAGCA	-0.118
ACCACCGG	0.186
AGTCATAG	-0.163
CATAGGGG	-0.214
ATAGCGTG	0.0888
ACTCATGA	0.00734
AGGGGTTG	-0.164
ACTCTTGG	-0.158
GCAGATTA	-0.086
CATACCAG	-0.224
CGGAAGGC	0.147
GAACGCGC	0.344
AATATACC	-0.0703
ATCAACAC	-0.0751
CCGGCAGA	0.122

Series 4
Target: RING finger protein unkempt homolog, zinc fingers 1-6, GST-SBP tag (UNK, Homo sapiens, UniProt Q9C0B0, residues 30-357)
Technique: RNA Bind-n-Seq
Molecule type: RNA
Sample: in vitro
Tested at: not given
Notes: RNA with constant flanks, human and mouse sites, ends assumed
Relative to: input RNA pool
Reading: higher = stronger binding
Constant ends, left off below: GGGAGUUCUACAGUCCGACGAUC … CAACAGAGGAUUGAGCAUCA
Target sequence (chain): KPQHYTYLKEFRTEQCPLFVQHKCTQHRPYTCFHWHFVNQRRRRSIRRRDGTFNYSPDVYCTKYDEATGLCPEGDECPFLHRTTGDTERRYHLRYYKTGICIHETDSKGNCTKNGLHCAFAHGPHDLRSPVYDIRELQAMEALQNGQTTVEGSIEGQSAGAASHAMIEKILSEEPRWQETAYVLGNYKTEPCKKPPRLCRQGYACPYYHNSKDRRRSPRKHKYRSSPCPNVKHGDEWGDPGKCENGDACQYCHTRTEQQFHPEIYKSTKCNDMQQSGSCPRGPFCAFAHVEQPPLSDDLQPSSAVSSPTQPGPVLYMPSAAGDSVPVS
Oligonucleotide	bound/input enrichment [ratio]
UUGGUUUUCUUAACUGUUGGCUUCUCCCCACAGCGUUUUUUGUUUUUUUUUAAACAUUCAUAUUGUUUUCAAACUUGGAAUUCAUAGACACUCUGGCUCUAGGUUCCUUAAGGGGGAAAA	0.267
ACCUCGUUUCUUUAUCUUCUUUUUUAUUUUCUUUCUUUUUCUUCGUUUUUUUUUUUUUUCUAGUGUUGUUACCCACGCCAUUUUACGUCUCCUUCACUGAAGGGCUAGAGUUUUAACUUU	28.1
CGGCCCAAGCAGGAGCUGCAGCGAGCCGGGUACCUGGACUCAGCGGUAGCAACCUCGCCCCUUGCAACAAAGGCAGACUGAGCGCCAGAGAGGACGUUUCCAACUCAAAAAUGCAGGCUC	0.113
UAUAAGAUCUGGAUUGUGGAGCCAAACCAAGGGGUUUGAAAGUAUAGAGGUUUGUAAAGUUCCAGCCCCGCAGCUGCACAGCACACCACCACUGCUGCUGUGCUCAGGUGUUUAUUGCAG	0.315
AUCAGCGAGGCGGCUGCGCAGUACAACCCGGAGCCCCCGCCCCCACGCACACAUUACUCCAACAUUGAGGCCAACGAGAGUGAGGAGGUCCGGCAGUUCCGGAGACUCUUUGCCCAGCUG	0.131
UUUUAGAGUGUGGAAAAACCAAUCUGAGAAGAACAACCUACCUUGUCCUUGAUGAAGCAGAUAGAAUGCUUGAUAUGGGCUUUGAACCCCAAAUAAGGAAGAUUGUGGAUCAAAUAAGAC	0.241
GGGCCGCAGACACGUAGGCUGGGGUGAGGAGUGUCUGCUGUCACCCUCUACUCUCCAGCUUUAGUCUUAUAAAUGUAGUGAUAGGAUUCCUUGUUGCUUGGUCCCCAAAGCCUUAUACUU	1.11
UAUCUGGACAAGGCACCCCCACCAGGCUUGCCAGCCGAAACGAUCAAGGAUCUGAUGCGCCAGUUUCUAAGAGGCCUAGAUUUCCUUCAUGCCAAUUGCAUCGUUCACCGAGAUCUGAAG	0.0826
GAUAUGUUUUAUAGGAAUUGGGCACUUAAGGAAAGCUUCAUAAAAGCCAUUGGUGUUGGACUAGGAUUUGAAUUGCAGCGGCUUGAAUUUGAUCUAUCUCCAUUAAACUUGGAUAUAGGC	1.03
UGUGUCUGGUGUCUGUCUGUCUCUCUCUGUGUCUGUCUCUGACUCUCUCUCUUUCUCUGUAUGUGUGUGUGUGUGUGUCUGUCUGUCUCUGUCUCUCUUUCUCUUUCUCUUUGGUGGCUA	0.655
GCAGUGGUAAUUCAAAAUGAGAGGGUCCCCUGCCUCUAGAGUCAUCAUCUAAUUGGGGACAGGCAGACCUAGAUAAGAAAAGCAGAGAACUACUUUGGAAAACAGUUUAUCUGCUGUAAU	0.32

Series 5
Target: Ras GTPase-activating protein-binding protein 1, C-terminal RGG region (G3BP1, Homo sapiens, UniProt Q13283)
Chain of UniProt Q13283 (whole entry, looked up): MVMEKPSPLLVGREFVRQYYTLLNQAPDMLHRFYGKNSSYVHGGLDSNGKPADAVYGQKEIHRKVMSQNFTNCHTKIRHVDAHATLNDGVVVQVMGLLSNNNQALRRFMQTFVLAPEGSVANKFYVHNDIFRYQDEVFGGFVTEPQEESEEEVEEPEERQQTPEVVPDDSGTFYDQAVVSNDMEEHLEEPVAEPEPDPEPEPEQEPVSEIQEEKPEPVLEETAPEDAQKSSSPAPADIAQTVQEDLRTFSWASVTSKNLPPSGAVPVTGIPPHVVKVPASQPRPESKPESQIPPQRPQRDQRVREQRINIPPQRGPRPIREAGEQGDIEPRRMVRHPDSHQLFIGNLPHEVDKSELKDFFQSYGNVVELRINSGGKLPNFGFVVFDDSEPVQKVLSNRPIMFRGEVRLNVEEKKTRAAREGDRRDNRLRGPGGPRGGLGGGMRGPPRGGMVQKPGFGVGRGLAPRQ
Technique: RNA Bind-n-Seq
Molecule type: RNA
Sample: in vitro
Tested at: 1 µM
Notes: whole 134-nt RNA, ends assumed
With: 150 mM KCl
Relative to: input library
Reading: higher = stronger binding
Constant ends, left off below: GGGAGUUCUACAGUCCGACGAUC … UGGAAUUCUCGGGUGUCAAGG
Oligonucleotide	log2 enrichment
GCAGGAAGUAAAAACAAAUGGAAAUGCCUCGGAUAGUGGCAGGGGUGGGGGUUGCUAAGGAAAGGGUGGGAUGGGAGUGGGUAAAGAGUU	1.61
GCAGGAAGUAAAAACAAAUGGCAAUGCUUCGGAUAGUGGCAGGGGUGGGGGUUGCUAAGGAAAGGGUGGGAUGGGAGUGGGUAAAGAGUU	2.41
CUCAAGUCCUGUGCUACACAUCGUAUGUACCGAAUCGGGCCGGGCCGGCCGGGGAAAGUAUUAUGUUACGCCGUUCGGAUCUGCACUUCC	-1.02
AGUCCUGUGCUACACAUCGUAUGUACCGAAUCGGGUUUUUGGUUUUUGGUUUUUGGGGAAAGUAUUAUGUUACGCCGUUCGGAUCUGCAC	-1.62
AAGUCCUGUGCUACACAUCGUAUGUACCGAAUCAAAUUUUUAAAUUUAAAUUUAAAAAAGUAUUAUGUUACGCCGUUCGGAUCUGCACUU	-2.3
GUCCUGUGCUACACAUCGUAUGUACCGAAUCGGGAAAAAAAGGGAAAAAGGGUUUGGGAAAGUAUUAUGUUACGCCGUUCGGAUCUGCAC	-0.315
CAAGUCCUGUGCUACACAUCGUAUGUACCGAAUCGGGAGGGAAAGGGUUUUUGGGAAAGUAUUAUGUUACGCCGUUCGGAUCUGCACUUC	1.25
UGGGAGGUGGAUUUUGUUUAUUUUUUUAGCUCAUUUCCAGGGGUGGGAAUUUUUUUUUAAUAUGAGUCAUGAAUAAAGUUGUUUUUGAAA	3.47
UCCUGUGCUACACAUCGUAUGUACCGAAUCGGGUUUUUUGGUUUUUUGGGUUUUUUGGGGAAAGUAUUAUGUUACGCCGUUCGGAUCUGC	-0.938
UCCUGUGCUACACAUCGUAUGUACCGAAUCGGGUUUUUUGGUUUUUUGGGGUUUUUUGGGAAAGUAUUAUGUUACGCCGUUCGGAUCUGC	-0.585
UGGGAGGUGGAUUUUGUUUAUUUUUUUAGCUCAUUUCCAGGGGUGGGAAUUUUUUUUUAAUAUGCGUCAUGAAUAAAGUUGUUUUUGAAA	3.4
UAACUUUAGAGGAGGAUCUGAUUGAUAUGGCAGUGGACGUGGAUUUGGGGAUGGCUAUAAUGGGUAUGGAGGAGGACCUGGAGGUGGCAA	-1.04
UGUGGAUGCCCUGCUGAAGAAGUCUGAGGCCCAGCAUGAACAGCCGGAAGAUGGAUGCCCCUUUGGUGCCCUGACGCAGCGCCUCCUGCA	-0.136
UGGGAGGUGGAUUUUGUUUAUUUUUUUAGCUCAUUUCCAGGGGUGGGAAUUUUUUUUUAAGAUGUGUCAUGAAUAAAGUUGUUUUUGAAA	3.39
